Measured values of several laboratories.
Numbered parts are unrelated; each lists some results of a single study. Substitutions count along the parent as printed.

Block 1
Target: Histone acetyltransferase KAT6A, winged helix 1, GST fusion (KAT6A, Homo sapiens, UniProt Q92794, residues 1-85)
Technique: protein binding microarray
Form: double-stranded DNA, one strand shown
Sample: in vitro
Concentration: not given
Notes: 8-mer, flanks averaged, mean of 2 arrays, mostly near background
Baseline: not given
Direction: higher = stronger binding
Measurement: E-score
Residues (chain): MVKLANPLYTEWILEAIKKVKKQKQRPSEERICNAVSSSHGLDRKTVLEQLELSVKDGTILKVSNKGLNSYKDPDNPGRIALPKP
ACCTACAC: -0.211
ACCAGGCC: -0.073
AATTTTCG: -0.0912
GACTGGGC: -0.221
CAACTTCA: -0.276
ACGCAGCT: 0.0347
GGAGCCTA: -0.111
AACGATTA: -0.132
ACACATCT: -0.209
ATAGTACC: 0.0523
AAACCGGC: 0.36
GCCGGGCC: 0.318
CCAGGCAG: -0.14
TATACGGA: 0.115
GCACCACC: 0.0371
CTCGGATC: -0.00118
AGCTAACT: -0.156

Block 2
Target: RNA binding protein fox-1 homolog 2, RRM domain, GST-SBP tag (RBFOX2, Homo sapiens, UniProt O43251-10, residues 100-194)
Technique: RNA Bind-n-Seq
Form: RNA
Sample: in vitro
Concentration: 365 nM
Notes: natural RNA segment, single round, ends assumed
Baseline: no-protein control
Direction: higher = stronger binding
Measurement: RBNS enrichment (R)
Construct (chain): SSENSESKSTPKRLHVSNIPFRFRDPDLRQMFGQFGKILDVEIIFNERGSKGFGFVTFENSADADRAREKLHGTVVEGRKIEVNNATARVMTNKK
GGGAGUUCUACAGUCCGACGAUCUCUCUCCUGAGUCAUGACGGGUCAUACUGAUUCUUGUUCCACUGAUGAUUUUCUCUGAUGAGGUCCUAUCUGCAAGGUCAAUGAGCAGACUUACAUGCCAUCUUCUGAGUUGGAAUUCUCGGGUGCCAA: 0.306
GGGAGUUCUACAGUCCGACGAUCUAACUCUGCGGAUAGCAUUUGGUAGGUAGUGAUUAACUGUGAAUAAUAAAUACACAAUGAAUUCUUCCUUGGUAUCUUUUUUUCCCCUUGCCUGCCUUAAAAAUUUAAAAUGGAAUUCUCGGGUGCCAA: 0.662
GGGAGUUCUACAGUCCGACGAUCUAUUACCAUAGUGCGAUGUCGUUUUGUGCUAUUUUGAACAAUUAAAAGACUUUUUUUGAAAUAACCAUAGGUGUCUCACUGUGUCCCGGCAUCCUCUCAGGAAGCCUGAGUGGAAUUCUCGGGUGCCAA: 0.293
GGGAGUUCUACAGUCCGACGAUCGUGAAACUGAUAGGUCUUGAUCUGCUUUCUUAGAUCACUGAUUCAGAGCUCAAAGCCCAGGUUCAGGGUAAGAAUUUGUAAUACAGAAGAAGAAAGACUCCCUUCACUUUUGGAAUUCUCGGGUGCCAA: 1.57
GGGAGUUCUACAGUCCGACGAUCUGUCAUGAGAAAAGAGGUACAUGGUGAUCCCCAAGAGAACUCAAGCCUUAUUCCUCACACACUACAGUUUGUAUUGAUCUUAAUUUUUAUCCUGUUAUACUGAGAUCCUAUGGAAUUCUCGGGUGCCAA: 0.307
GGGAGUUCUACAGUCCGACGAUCGGUUCUCACGGGUUCAAUCUUUUGUGUUUAGAGAGGCCACGGUUCAGACAAUGGUAUAUAUUUUUGUUAUCAGGUGCAUGUCUGUCUGAUUUCUUUUUUUUUCCUGUUGGUGGAAUUCUCGGGUGCCAA: 23
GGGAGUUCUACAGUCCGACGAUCCCAGAGCUCUUUCUGGUCAGAUUCCCCAGGUGUUUGUCCCCAGCCAAGCCUGGUCCGUAUUGUGAAGCUUGGGAUGCUGGAGCCAAUGCUGUCCCAAGAAGGCUUACUUUUGGAAUUCUCGGGUGCCAA: 0.544
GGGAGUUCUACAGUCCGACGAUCAACUGAAAAGCAGGUGAAAGGAGGAAUAUUUCAGUGUGUUUUUACAUCUGAAUCCAAGGGAUCCAAGUGGCCCAGCAGAAACGGAAUUCUUGUUAAAAUGACUGAUUCUCUGGAAUUCUCGGGUGCCAA: 0.28

Block 3
Target: ABI1, truncated, D143A, DHFR fusion (Arabidopsis thaliana)
Technique: DHFR PCA, deep sequencing
Sample: yeast
Notes: methotrexate growth selection, single substitutions
Added: (+)-ABA 4.8 µM
Baseline: wild-type fitted maximum
Direction: higher = stronger binding
Measurement: relative binding score
Parent: PYL1, truncated, DHFR fusion (Arabidopsis thaliana); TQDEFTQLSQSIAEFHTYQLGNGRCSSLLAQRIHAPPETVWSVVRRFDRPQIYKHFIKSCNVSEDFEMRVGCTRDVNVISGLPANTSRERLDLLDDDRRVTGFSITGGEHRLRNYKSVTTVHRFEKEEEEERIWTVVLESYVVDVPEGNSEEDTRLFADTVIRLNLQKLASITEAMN
K168A: 55.4%
R74F: 0.61%
D153L: -6.39%
A175K: 84.1%
E4N: 54.6%
R99K: 87.3%
L169Q: 0.449%
E129F: 66.2%
T119C: 49.5%
T1I: 78%

Further values, each from its own experiment
PhoQ, residues 284 288 289 292 302 303 AGCYAI — fold induction (PhoP, residues 12 14 15 18 19 HEGLL (Escherichia coli, UniProt P23836); Sort-seq, refers to: YFP reporter; E. coli; PhoQ-PhoP variant library, added: 10 µM Mg2+; baseline: high Mg2+ state, higher = stronger signaling): 6.65

Repeated from above (block 1):
AAACCGGC: 0.36
GCCGGGCC: 0.318
CCAGGCAG: -0.14
TATACGGA: 0.115
